Assay results gathered from unrelated publications.
A part holds a random share of what one study measured. ± marks the error that the study gave. ≈ marks a conversion by molar mass, not a printed value.

Block 1
Organism: Escherichia coli
Strain: ATCC 25955
Structure (SMILES)	MBC/MIC ratio
COc1ccc(N=Nc2c(N)nn3c(-c4ccc(Cl)cc4Cl)cc(-c4ccc(OCc5ccccc5)cc4)nc23)cc1	2
Cc1ccc(N=Nc2c(N)nn3c(-c4ccc(Cl)cc4Cl)cc(-c4ccc(OCc5ccccc5)cc4)nc23)cc1	4
Nc1nn2c(-c3ccco3)cc(-c3ccc(OCc4ccccc4)cc3)nc2c1N=Nc1ccc(F)cc1	3.9
Cc1ccc(N=Nc2c(N)nn3c(-c4ccco4)cc(-c4ccc(OCc5ccccc5)cc4)nc23)cc1	4
COc1ccc(N=Nc2c(N)nn3c(-c4ccc(C)cc4)cc(-c4ccc(OCc5ccccc5)cc4)nc23)cc1	16

Block 2
Target: mushroom tyrosinase
Observed: enzyme activity
Tested at: 40 µM
Added: L-DOPA
SMILES	inhibition [%]
COc1ccc(NC(=O)Cn2cc(COc3ccc(-c4nc5ccccc5c(=O)n4Nc4ccc([N+](=O)[O-])cc4[N+](=O)[O-])cc3OC)nn2)c(OC)c1	101 ± 1.68
COc1cc(-c2nc3ccccc3c(=O)n2Nc2ccc([N+](=O)[O-])cc2[N+](=O)[O-])ccc1OCc1cn(CC(=O)Nc2ccc(Cl)cc2)nn1	28.9 ± 2.29
COc1cc(-c2nc3ccccc3c(=O)n2Nc2ccc([N+](=O)[O-])cc2[N+](=O)[O-])ccc1OCc1cn(CC(=O)Nc2ccc(Cl)cc2Cl)nn1	29.4 ± 2.92

Single results of other studies
SMILES	tested on	test	test system	setting	measurement	result
O=C(Nc1cc(-c2ccc(Cl)cc2)[nH]n1)C1CCCCC1	EEF2K (Homo sapiens, UniProt O00418)	enzyme activity, Dundee kinase panel	–	10 µM	remaining activity	105%
CCOc1c([C@H](C)n2nc(C)c3c(N)ncnc32)cc(Cl)c(F)c1[C@@H]1CNC(=O)C1	–	–	patients with B-cell malignancies, plasma	oral, 20 mg, day 15, all cohorts, monotherapy	half-life geometric mean	9.2 h
COc1cc(/C=N/NC(=S)N/N=C/c2ccc(C)cc2)ccc1Oc1ccnc2cc(Cl)ccc12	Pancreatic alpha-amylase (Homo sapiens, UniProt P04746)	enzyme activity, inhibitor, DNS method	–	added: starch substrate	IC50	24.1 ± 0.3 µg/mL (≈ 47.7 µM)

Repeated from above (single results of other studies):
SMILES	tested on	test	test system	setting	measurement	result
COc1cc(/C=N/NC(=S)N/N=C/c2ccc(C)cc2)ccc1Oc1ccnc2cc(Cl)ccc12	Pancreatic alpha-amylase (Homo sapiens, UniProt P04746)	enzyme activity, inhibitor, DNS method	–	added: starch substrate	IC50	24.1 ± 0.3 µg/mL (≈ 47.7 µM)
